Measured values pooled from the literature.
± gives the spread as reported.

SMILES | organism | assay | system | setting | scale | endpoint | value
CC(C)C1=C[C@@]23CC[C@@H]4[C@](C)(CCC[C@@]4(C)C(=O)NCC#CCN4CCCNCC4)[C@H]2C[C@@H]1C1=C3C(=O)C=CC1=O | Influenza A virus | viral replication | MDCK, A/Puerto Rico/8/34 (H1N1) | – | – | IC50 | 190 nM
O=S(=O)(O)CCCCCCCCCCCSC[C@H]1O[C@@H]2O[C@H]3[C@H](O)[C@@H](O)[C@@H](O[C@H]4[C@H](O)[C@@H](O)[C@@H](O[C@H]5[C@H](O)[C@@H](O)[C@@H](O[C@H]6[C@H](O)[C@@H](O)[C@@H](O[C@H]7[C@H](O)[C@@H](O)[C@@H](O[C@H]8[C@H](O)[C@@H](O)[C@@H](O[C@H]1[C@H](O)[C@H]2O)O[C@@H]8CSCCCCCCCCCCCS(=O)(=O)O)O[C@@H]7CSCCCCCCCCCCCS(=O)(=O)O)O[C@@H]6CSCCCCCCCCCCCS(=O)(=O)O)O[C@@H]5CSCCCCCCCCCCCS(=O)(=O)O)O[C@@H]4CSCCCCCCCCCCCS(=O)(=O)O)O[C@@H]3CSCCCCCCCCCCCS(=O)(=O)O | Influenza A virus H3N2 | viral replication | – | concentration not given | – | antiviral activity | no inhibition
CN1CC23C4C5CC5C5C4C4C2C2CC2C4C53C1 (centres unmarked) | Influenza A virus | viral replication | MDCK, H1N1 A/PR/8/34 | – | – | EC50 | 4600 nM
CC(C)C[C@H](NC(=O)OCc1ccccc1)C(=O)N[C@@H](C[C@@H]1CCNC1=O)C(O)S(=O)(=O)O (some centres unmarked) | human coronavirus NL63 | viral replication | – | – | – | EC50 | 190 ± 10 nM
Cc1ccc2nc(C)c(C(=O)NCc3cccs3)n2c1 | Haemophilus influenzae | broth microdilution | H128 AcrA- | – | – | MIC | > 64 µM
CCCCCC(=O)NCC(=O)N[C@@H](CC(C)C)C(=O)N[C@@H](CC(C)C)C(=O)N[C@@H](CCCCN)C(=O)N[C@@H](CCCNC(=N)N)C(=O)N[C@H](C(=O)N[C@@H](CCCCN)C(=O)N[C@H](C(=O)N[C@@H](CC(C)C)C(=O)N[C@@H](CC(C)C)C(=O)NCCCC[C@H](NC(=O)[C@H](CC(C)C)NC(=O)[C@H](CC(C)C)NC(=O)[C@@H](NC(=O)[C@H](CCCCN)NC(=O)[C@@H](NC(=O)[C@H](CCCNC(=N)N)NC(=O)[C@H](CCCCN)NC(=O)[C@H](CC(C)C)NC(=O)[C@H](CC(C)C)NC(=O)CNC(=O)CCCCC)[C@@H](C)CC)[C@@H](C)O)C(N)=O)[C@@H](C)O)[C@@H](C)CC | Klebsiella pneumoniae | checkerboard | ATCC 700603 | added: polymyxin B | – | FIC index | 0.125
c1ccc(CNCC23C4CCC5C4C4C(CCC42)C53)cc1 | Influenza A virus | viral replication | MDCK, H3N2 A/HK/7/87 | – | – | EC50 | > 100000 nM
CC[C@H](C)[C@H](NC(=O)[C@H](CCCNC(=N)N)NC(=O)[C@H](CCCCN)NC(=O)[C@H](CC(C)C)NC(=O)[C@H](CC(C)C)NC(=O)CN)C(=O)N[C@@H](CCCCN)C(=O)N[C@H](C(=O)N[C@@H](CC(C)C)C(=O)N[C@@H](CC(C)C)C(=O)NCCCC[C@H](NC(=O)[C@H](CCCCNC(=O)[C@H](CC(C)C)NC(=O)[C@H](CC(C)C)NC(=O)[C@@H](NC(=O)[C@H](CCCCN)NC(=O)[C@@H](NC(=O)[C@H](CCCNC(=N)N)NC(=O)[C@H](CCCCN)NC(=O)[C@H](CC(C)C)NC(=O)[C@H](CC(C)C)NC(=O)CN)[C@@H](C)CC)[C@@H](C)O)NC(=O)[C@H](CC(C)C)NC(=O)[C@H](CC(C)C)NC(=O)[C@@H](NC(=O)[C@H](CCCCN)NC(=O)[C@@H](NC(=O)[C@H](CCCNC(=N)N)NC(=O)[C@H](CCCCN)NC(=O)[C@H](CC(C)C)NC(=O)[C@H](CC(C)C)NC(=O)CN)[C@@H](C)CC)[C@@H](C)O)C(N)=O)[C@@H](C)O | Klebsiella pneumoniae | checkerboard | ATCC 700603 | added: polymyxin B | – | FIC index | 0.312
CCc1ccc([C@@H]2C[C@H](C(F)(F)F)n3ncc(C(=O)NCc4ccc(OC)cc4)c3N2)cc1 | Haemophilus influenzae | microbial growth, broth dilution | H128 | – | – | MIC | 64 µM
CC[C@H](C)[C@H](NC(=O)[C@H](C)NC(=O)[C@@H]1CCCN1C(=O)[C@H](CC(C)C)NC(=O)[C@H](Cc1ccccc1)NC(=O)[C@H](CCCCN)NC(=O)[C@H](CCSC)NC(=O)[C@H](C)NC(=O)[C@H](CCSC)NC(=O)[C@H](CCCCN)NC(=O)[C@H](C)NC(=O)[C@@H](NC(=O)[C@@H](NC(=O)CNC(=O)[C@H](Cc1ccccc1)NC(=O)[C@@H](N)Cc1ccccc1)C(C)C)[C@@H](C)CC)C(=O)N[C@@H](Cc1ccccc1)C(=O)N[C@@H](CCCCN)C(=O)N[C@@H](CCC(N)=O)C(=O)N[C@H](C(=O)N[C@@H](CCC(N)=O)C(=O)N[C@@H](CCCCN)C(=O)N[C@@H](CCCCN)C(=O)N[C@@H](CCCNC(=N)N)C(=O)N[C@@H](CCCCN)C(N)=O)[C@@H](C)CC | Aspergillus flavus | ATP luminescence | ATCC 9170 | 48 h, 37 °C | – | MIC | > 50 µM
CC[C@H](C)[C@@H]1NC(=O)[C@H](CC(C)C)NC(=O)[C@@H](NC(=O)[C@H](CO)NC(=O)[C@H](CCCNC(=N)N)NC(=O)[C@@H](N)CO)CSSC[C@H](NC(=O)[C@H](CO)NC(=O)[C@H](CCCNC(=N)N)NC(=O)[C@@H](N)CO)C(=O)N[C@@H](CC(C)C)C(=O)N[C@@H]([C@@H](C)CC)C(=O)N[C@@H](C(C)C)C(=O)N[C@H](C(=O)N[C@@H](CCC(N)=O)C(=O)N[C@@H](CCCNC(=N)N)C(=O)N[C@@H](CC(C)C)C(=O)N[C@@H](Cc2ccccc2)C(N)=O)CSSC[C@@H](C(=O)N[C@@H](CCC(N)=O)C(=O)N[C@@H](CCCNC(=N)N)C(=O)N[C@@H](CC(C)C)C(=O)N[C@@H](Cc2ccccc2)C(N)=O)NC(=O)[C@H](C(C)C)NC1=O | Listeria monocytogenes | broth microdilution | ATCC BAA-679 (EGD-e) | – | – | MIC | 50 µg/mL
COc1ccc2nc(C)cc(OCC(=O)Nc3cc(C)cc(C)c3)c2c1 | Haemophilus influenzae | broth microdilution | H128 AcrA- | – | – | MIC | 32 µM
O=[N+]([O-])NC1=NCCN1Cc1ccc(Cl)nc1 | Myzus persicae | leaf-dip bioassay | – | 72 h, adults | relative to: LC50 over susceptible strain | resistance ratio | 20
N=C(N)N1CC23C4C5CC5C5C4C4C2C2CC2C4C53C1 (centres unmarked) | Influenza A virus | viral replication | MDCK, H1N1 A/PR/8/34 | – | – | EC50 | > 100000 nM

A few entries again:
SMILES | organism | assay | system | setting | scale | endpoint | value
CC(C)C[C@H](NC(=O)OCc1ccccc1)C(=O)N[C@@H](C[C@@H]1CCNC1=O)C(O)S(=O)(=O)O (some centres unmarked) | human coronavirus NL63 | viral replication | – | – | – | EC50 | 190 ± 10 nM
Cc1ccc2nc(C)c(C(=O)NCc3cccs3)n2c1 | Haemophilus influenzae | broth microdilution | H128 AcrA- | – | – | MIC | > 64 µM
